Experimental data pooled from the literature.
Numbered parts are unrelated; each lists some results of a single study.

Series 1
Target: Interferon regulatory factor 7, full length, phosphomimetic (IRF7, Homo sapiens, UniProt Q92985, residues 1-503, S471D/S472D/S475D/S476D/S477D/S483D/S484D/S487D)
Sequence of UniProt Q92985 (whole entry, unmodified, looked up): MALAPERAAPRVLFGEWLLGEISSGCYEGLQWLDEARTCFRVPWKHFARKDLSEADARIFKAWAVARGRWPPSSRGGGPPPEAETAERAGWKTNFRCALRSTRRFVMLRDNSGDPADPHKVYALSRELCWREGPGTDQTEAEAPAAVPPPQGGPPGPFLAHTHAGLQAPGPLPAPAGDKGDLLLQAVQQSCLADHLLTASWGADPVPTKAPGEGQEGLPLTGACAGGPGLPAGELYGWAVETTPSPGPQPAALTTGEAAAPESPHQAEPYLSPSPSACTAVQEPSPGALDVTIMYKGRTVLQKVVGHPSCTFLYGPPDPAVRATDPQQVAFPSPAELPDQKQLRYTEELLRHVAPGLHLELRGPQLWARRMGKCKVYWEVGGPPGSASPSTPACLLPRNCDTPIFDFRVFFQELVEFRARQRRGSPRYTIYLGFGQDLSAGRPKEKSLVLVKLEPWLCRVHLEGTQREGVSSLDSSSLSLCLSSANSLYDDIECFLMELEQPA
Technique: protein-binding microarray
Form: double-stranded DNA, one strand shown
Matrix: in vitro
Concentration: 2200 nM top
Setting: 60-bp whole probe
Added: salmon DNA 0.4 mg/ml
Baseline: random background probes
Reading: higher = stronger binding
Shared flanks, not repeated: GCCTAGCAC … GTCTTGATTCGCTTGACGCTGCTG
Under “fitted relative affinity”, `TTAGGTCTCGGTATCTGTTAGTGCTAG` is recorded as 0.819 z-score.
Under “fitted relative affinity”, `TGAGATATCAGACTGGATTAGTGCTAG` is recorded as -0.408 z-score.
`TTAGGTCTCCTTCTGCTTTAGTGCTAG`: “fitted relative affinity” 0.797 z-score.
For `CTACGTCTGATTTTGCTTTCGTGCTAG`, “fitted relative affinity” read 2.93 z-score.
Under “fitted relative affinity”, `TGGTGTCTCTGGCCTGGGTCGGTGCTA` is recorded as -0.433 z-score.
For `TTAGGTTTAGACTTTCGGTTAGTGCTA`, “fitted relative affinity” read 4.99 z-score.
Under “fitted relative affinity”, `CTAGAACTGGGGACTGGATTAGTGCTA` is recorded as -0.5 z-score.
Under “fitted relative affinity”, `TTAGGTTTCCTACTGATTTAGTGCTAG` is recorded as 1.04 z-score.
Under “fitted relative affinity”, `GCGCCTTGATGTCTGGGTCTGTGCTAG` is recorded as 0.861 z-score.
Under “fitted relative affinity”, `TAAGGTCTCCTTTTCCTTTAGTGCTAG` is recorded as 2.12 z-score.
`TCATTTTTGTTGTTTTTACTGTGCTAG` — result for “fitted relative affinity”: 2.3 z-score.
`TTTGTAATCGAAATCTTCATGTGCTAG` — result for “fitted relative affinity”: 0.701 z-score.
For `GACGGTATCGGGGCTGGGGACGTGCTA`, “fitted relative affinity” read -0.0651 z-score.

Series 2
Target: Histone acetyltransferase KAT6A, winged helix 2, GST fusion (KAT6A, Homo sapiens, UniProt Q92794, residues 85-181)
Technique: protein binding microarray
Form: double-stranded DNA, one strand shown
Matrix: in vitro
Concentration: not given
Setting: 8-mer, flanks averaged, mean of 2 arrays, mostly near background
Baseline: not given
Reading: higher = stronger binding
Construct (chain): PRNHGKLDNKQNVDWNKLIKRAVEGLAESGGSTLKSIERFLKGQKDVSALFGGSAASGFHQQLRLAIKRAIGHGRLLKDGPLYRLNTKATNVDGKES
With `CTCTACGA` the E-score was -0.0783.
`TTCTCCAA` gave an E-score of 0.169.
With `GCATTAGC` the E-score was 0.0547.
`ATTCTGGG` has an E-score of 0.0087.
`AGCCTCAA` has an E-score of 0.0194.
`AGCTCCCC` gave an E-score of -0.12.
With `ATAAATGG` the E-score was -0.025.
`GGTGTCGA` gave an E-score of 0.024.
For `CGGAACAG`, the E-score was 0.0368.
`AGGCTATG` gave an E-score of -0.134.
For `ATCGCAGA`, the E-score was -0.0274.
The E-score of `CTGCGCCA` is reported as 0.131.
`AGTCGCAA` gave an E-score of -0.118.

Series 3
Target: RNA binding protein fox-1 homolog 2, RRM domain, GST-SBP tag (RBFOX2, Homo sapiens, UniProt O43251-10, residues 100-194)
Technique: RNA Bind-n-Seq
Form: RNA
Matrix: in vitro
Concentration: 365 nM
Setting: natural RNA segment, single round, ends assumed
Baseline: no-protein control
Reading: higher = stronger binding
Shared flanks, not repeated: GGGAGUUCUACAGUCCGACGAUC … UGGAAUUCUCGGGUGCCAA
Construct (chain): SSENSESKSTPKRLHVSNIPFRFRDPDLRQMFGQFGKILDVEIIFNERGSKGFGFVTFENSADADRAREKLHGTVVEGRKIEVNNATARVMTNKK
`UGCAGAUCCCAGGCUGUGGAUUACGUCACUGCAGGAACUGCUUCUGAAAGGCUUUGGCCUUCCUCAGUGAGCCCUGGAGGGGUUGGCCUUCUCUCCUCCCUGCCUAGAUC`: “RBNS enrichment (R)” 0.289.
For `UUCUGUCACUGUCAGUUAUUUAAUGAGUGUUUUUUCAGGGUCUGUUUUAAGAUCAUUAUUUGAUAGCUGUAGCAUGAAGCAGAGGUUGAUGAUGCCCAUAAUUGCAAGAC`, “RBNS enrichment (R)” read 4.18.
`UGGAUACAAUAGGUUAAGGCCCAAGAUGUUUGAAAUGAAUGCAAUAUUAAUAGAUGCAUAUAUACAUGACAUAUUGUGGUUAAUUUUAAAACUACUGUGCCUUAACGUGU` — result for “RBNS enrichment (R)”: 0.571.
`UUUUUUUAGAUCUUAUAUUGUGUUUUGUAUGCAGCCCUUUUAGAACUACUUGUAGUGAGGGUGCUGUGUGUGCUUUUCUUAAAUAUUUAUUUUUUUCAACAUGCUUUCAA`: “RBNS enrichment (R)” 1.48.
`ACAAAAAAGCACAAGCCCGCUGCAUGACCCGUCUCUCCUUUCUGGGACUAUUUCUGCUGCGUCCUGCACCCUCCUGGGCCCACCUCCGAUUCACAGAGGUUUCAGGGGGA`: “RBNS enrichment (R)” 1.16.
`AUGCCCCACCCCAGCUCUCUUUCCCUUCUGGGUGUCUUUGCUGGGAGGGGGCUGUGUUGUGAGCCCUCCCGGUUCUCACCUCGCCUGGCACUUAACCACACCCUGGUUUU` — result for “RBNS enrichment (R)”: 0.279.
`AAAUAUCAGGGAUUUUUGUUGAAUAUUUCAAAUUCAGCUUUAAGUGUAAGACUCAGCAGUGUUCAUGGUUAAGGUAAGGAACAUGCCUUUUCCAGAGCUGCUGCAAGAGG`: “RBNS enrichment (R)” 0.392.
Under “RBNS enrichment (R)”, `CUGGAGGUCAGCUAUAGCUAAAAUUGUUAUUUCUCUGGGGAGGGGACUUUUUUUAUCUUUAUUUUUAUUUUGGAGAUUGGAUUUUUCUAUGUAGCUAUGGCUGUCCUUGA` is recorded as 1.41.

Mixed results
With `PhoQ, residues 284 288 289 292 302 303 TASMAF` the fold induction was 29.7 (PhoP, residues 12 14 15 18 19 NMSSL (Escherichia coli, UniProt P23836); Sort-seq, refers to: YFP reporter; E. coli; PhoQ-PhoP variant library, added: 10 µM Mg2+; baseline: high Mg2+ state, higher = stronger signaling).

Some of these lines once more (series 2):
With `CTCTACGA` the E-score was -0.0783.
`TTCTCCAA` gave an E-score of 0.169.
With `GCATTAGC` the E-score was 0.0547.
`ATTCTGGG` has an E-score of 0.0087.
`AGCCTCAA` has an E-score of 0.0194.
